Experimental data from different studies.
Lines come from different studies, so protocols differ. ± marks the error that the study gave.

Compound	target	test	system	conditions	scale	endpoint	value
O=C(Nc1cc(OCCN2CCCC2)c2ccccc2n1)c1cccc(C(=O)Nc2cc(OCCN3CCCC3)c3ccccc3n2)n1	Bcl2 G-quadruplex DNA	FRET melting	–	1 µM, pH 7.4, added: 60 mM potassium	–	ΔTm	3.5 ± 0.4 K
Cc1c(C)c2cccnc2c2ncccc12.O=[N+]([O-])[O-].O=c1c(C=NN=C([S-])Nc2ccccc2)coc2ccccc12.[Cu+2]	supercoiled pUC19 DNA	oxidative DNA cleavage	–	concentration not given, catalase 0.1 U, added: ascorbic acid	–	nicked circular DNA	14%
N=C(NCC[C@H](NC(=O)c1noc(-c2cc(F)ccc2F)n1)c1nc2ccccc2[nH]1)c1ccc([N+](=O)[O-])o1	STING pathway	inhibitor, RT-qPCR	mouse iBMDM	concentration not given, 2 h, added: diABZI 500 nM	–	IFNβ mRNA level	inhibited
C=CC(=O)N1[C@@H](c2ccc3c(c2)OCO3)c2[nH]c3ccccc3c2C[C@H]1C(=O)N1CCN(C)CC1	human cyclin E1 N112C-3xFLAG:CDK2	co-IP with TMT proteomics, item: PCBP1	–	concentration not given, Q15365	baseline: wild type DMSO	relative co-enrichment	136%
C=CC(=O)Nc1cccc(Cn2ncc3cnc(Nc4cnn(CCOC)c4)nc32)c1	human CTK	KINOMEscan	–	100 nM	baseline: control	binding	100%
CN(Cc1cc(C2CC2)on1)C(=O)c1cccc(-c2ccc3c(c2)CCO3)c1	acetyl-CoA synthetase 1 (Aspergillus fumigatus)	enzyme activity, inhibitor, coupled pyrophosphate	–	200 nM	higher is more activity	reaction rate	0.00127 a.u.
Cc1sc2ncn(CC(=O)N3CCCC3)c(=O)c2c1-c1cccc(Br)c1	NMDA receptor, mouse	single-channel current, outside-out patch	cortical neurons	50 µM, added: Ca2+ 0.5 mM	–	mean open time	4.2 ± 0.7 ms
c1ccc(-c2n[nH]cc2-c2ccnc3ccccc23)nc1	BCK1 (Candida albicans)	kinase binding, MIB/MS competition	Candida albicans lysate	10 µM	baseline: DMSO	log2 fold change	-0.07
COCC(=O)N1CCc2cc(-c3csc(NC(=O)c4cc(OC)cc(OC)c4)n3)ccc21	rat GABAA receptor central	–	–	10 µM, added: muscimol	–	inhibition	8%
CCCCCC(=O)NC(CC(=O)N(CC)CC)C(=O)NC(Cc1ccc(F)cc1)C(=O)NC(Cc1ccc(F)cc1F)C(=O)C1(C)CO1 (stereo not drawn)	proteasome β5, Trypanosoma brucei	activity-based probe labelling, inhibitor	parasite lysate	1 µM, 1 h preincubation, added: Me4BodipyFL-Ahx3Leu3VS	–	probe labelling	inhibited
O=c1cc(-c2ccccc2)oc2c(Br)c(O)c(O)c(O)c12	bovine serum albumin	methylglyoxal-mediated glycation, fluorescence	–	concentration not given	–	inhibition	35.6 ± 0.71%
Nc1ncc(-c2cc(-c3cnn(CC(F)(F)F)c3)ncc2F)nc1C(=O)NC1CNCC(F)C1 (stereo not drawn)	CAMKK1	KINOMEscan	–	1 µM	baseline: DMSO control	remaining binding	100%
Cc1cn(CC(=O)N(CC(=O)N[C@H]2CCC[C@@H]2N(CC(=O)N[C@H]2COC[C@@H]2N(CC(=O)N[C@H]2COC[C@@H]2N(CC(=O)N[C@H]2COC[C@@H]2N(CC(=O)NCCOCCOCC(N)=O)C(=O)Cn2cnc3c(N)ncnc32)C(=O)Cn2cc(C)c(=O)[nH]c2=O)C(=O)Cn2cnc3c(N)ncnc32)C(=O)Cn2cnc3c(=O)[nH]c(N)nc32)[C@H]2CCC[C@@H]2NC(=O)CN(C(=O)Cn2cnc3c(=O)[nH]c(N)nc32)[C@H]2CCC[C@@H]2NC(=O)CN(C(=O)Cn2cc(C)c(=O)[nH]c2=O)[C@H]2COC[C@@H]2NC(=O)CN(C(=O)Cn2cnc3c(N)ncnc32)[C@H]2COC[C@@H]2NC(=O)CN(C(=O)Cn2cnc3c(=O)[nH]c(N)nc32)[C@H]2COC[C@@H]2N)c(=O)[nH]c1=O	mismatched DNA TG	duplex formation, UV melting	–	–	baseline: complementary DNA	ΔTm	-20.3 °C
CN(C)CCOc1cc(NC(=O)c2cccc(C(=O)Nc3cc(OCCN(C)C)c4ccccc4n3)n2)nc2ccccc12	Bcl2 G-quadruplex DNA	FRET melting	–	1 µM, pH 7.4, added: 60 mM potassium	–	ΔTm	9.9 ± 1.1 K
N=C(c1ccc([N+](=O)[O-])o1)N1CCC(NC(=O)c2cc(-c3ccc(F)cc3F)on2)(c2nc3ccccc3[nH]2)CC1	STING pathway	inhibitor	human CD14+ monocytes	2.5 µM, added: diABZI	–	IFNβ secretion	inhibited

Repeated from above:
Compound	target	test	system	conditions	scale	endpoint	value
CN(Cc1cc(C2CC2)on1)C(=O)c1cccc(-c2ccc3c(c2)CCO3)c1	acetyl-CoA synthetase 1 (Aspergillus fumigatus)	enzyme activity, inhibitor, coupled pyrophosphate	–	200 nM	higher is more activity	reaction rate	0.00127 a.u.
